# Measurements gathered from unrelated publications.
# Parts stem from different laboratories: compare values within a part only. Substitutions count along the parent as printed.

# Series 1
# Target: Protein C-ets-1 (ETS1, Homo sapiens, UniProt P14921, residues 1-441, K379A, full length assumed)
# Technique: protein-binding microarray
# Molecule type: double-stranded DNA, one strand shown
# Matrix: in vitro
# Tested at: not given
# Notes: k-mer, scored over probes, only values ≥0.25
# Reading: higher = stronger binding
# Construct (chain): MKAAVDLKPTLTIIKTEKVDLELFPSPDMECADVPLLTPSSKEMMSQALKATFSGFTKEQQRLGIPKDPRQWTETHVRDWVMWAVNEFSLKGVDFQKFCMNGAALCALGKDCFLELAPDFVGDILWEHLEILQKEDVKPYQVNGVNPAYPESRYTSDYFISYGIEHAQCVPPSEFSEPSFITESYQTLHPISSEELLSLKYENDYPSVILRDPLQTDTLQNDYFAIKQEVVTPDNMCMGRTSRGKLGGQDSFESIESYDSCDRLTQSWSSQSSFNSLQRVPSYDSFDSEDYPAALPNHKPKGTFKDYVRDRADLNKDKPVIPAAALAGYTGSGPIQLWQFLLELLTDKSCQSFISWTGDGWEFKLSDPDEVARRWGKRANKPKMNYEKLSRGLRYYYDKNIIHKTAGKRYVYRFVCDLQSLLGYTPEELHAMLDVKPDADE
Oligonucleotide,E-score
CTACTGTA,0.294
GACCGGCA,0.29
ACTTCCGC,0.37
ACAGGATG,0.262
ATTGCAAT,0.32
CGGTTACA,0.306

# Series 2
# Target: Interferon regulatory factor 7, full length, phosphomimetic (IRF7, Homo sapiens, UniProt Q92985, residues 1-503, S471D/S472D/S475D/S476D/S477D/S483D/S484D/S487D)
# Technique: protein-binding microarray
# Molecule type: double-stranded DNA, one strand shown
# Matrix: in vitro
# Tested at: 2200 nM top
# Notes: 60-bp whole probe
# With: salmon DNA 0.4 mg/ml
# Relative to: random background probes
# Reading: higher = stronger binding
# Constant ends, left off below: GCCTAGCAC … GTCTTGATTCGCTTGACGCTGCTG
# Construct (chain): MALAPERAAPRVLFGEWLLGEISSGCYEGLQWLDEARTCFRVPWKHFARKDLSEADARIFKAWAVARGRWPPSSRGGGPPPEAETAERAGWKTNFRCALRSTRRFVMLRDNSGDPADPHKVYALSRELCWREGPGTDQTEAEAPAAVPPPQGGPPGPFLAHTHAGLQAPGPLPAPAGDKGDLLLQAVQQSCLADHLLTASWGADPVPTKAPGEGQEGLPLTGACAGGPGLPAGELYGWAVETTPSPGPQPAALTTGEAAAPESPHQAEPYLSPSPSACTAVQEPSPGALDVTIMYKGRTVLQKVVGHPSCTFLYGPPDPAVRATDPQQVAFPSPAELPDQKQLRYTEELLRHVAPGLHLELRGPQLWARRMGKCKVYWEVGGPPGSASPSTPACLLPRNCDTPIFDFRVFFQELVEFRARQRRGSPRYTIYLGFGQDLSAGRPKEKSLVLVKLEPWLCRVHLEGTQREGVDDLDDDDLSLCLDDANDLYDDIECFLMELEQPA
Oligonucleotide,fitted relative affinity
TCACTTTTGCTTGTTCTTACTGTGCTA,3.38 z-score
ATAGGTCTCCTTCTCCTTTAGTGCTAG,1.24 z-score
TCATTTATCAATCATTTTACTGTGCTA,1.21 z-score
GACGATATCATTCTCGAGACGTGCTAG,0.512 z-score
GACGATTACGGGTTTCGAGACGTGCTA,1.72 z-score
TCATCTATCTTAAATAGGACTGTGCTA,0.106 z-score
GACGGTATCTGACTGGGGACGTGCTAG,-0.0723 z-score
TTAGATCTCGGGTTTCGATTAGTGCTA,2.88 z-score

# Series 3
# Target: CCNA1, cyclin fold, Cln2 fusion (human)
# Technique: yeast growth competition, sequencing
# Matrix: yeast
# Notes: weak parent motif
# Relative to: not given
# Reading: higher = stronger binding
# Parent: PKMYT1 docking peptide (human); SFEPRNLLSLFED
Change,normalised enrichment score
SYEPRNLLSLFED [F2Y],0.0947
SFEPRNLLILFED [S9I],0.131
QFEPRNLLSLFED [S1Q],0.164
SFESRNLLSLFED [P4S],0.472
SFEPRNLLSLFEW [D13W],-0.132
SFEPRNLLSLFRD [E12R],-0.0735
SFEPSNLLSLFED [R5S],0.127

# Mixed results
Molecule,target,assay,system,conditions,scale,endpoint,value
"PhoQ, residues 284 288 289 292 302 303 SSTLLI","PhoP, residues 12 14 15 18 19 AGCRL (Escherichia coli, UniProt P23836)","Sort-seq, refers to: YFP reporter",E. coli,"PhoQ-PhoP variant library, with: 10 µM Mg2+","relative to: high Mg2+ state, higher = stronger signaling",fold induction,10.3

# Repeated from above (series 3):
Change,normalised enrichment score
SFEPRNLLSLFEW [D13W],-0.132
